Published values of several laboratories.
Every numbered part comes from another study and shows a few of its results, in no order.
UniProt Q96SB4, sequence (whole entry, looked up): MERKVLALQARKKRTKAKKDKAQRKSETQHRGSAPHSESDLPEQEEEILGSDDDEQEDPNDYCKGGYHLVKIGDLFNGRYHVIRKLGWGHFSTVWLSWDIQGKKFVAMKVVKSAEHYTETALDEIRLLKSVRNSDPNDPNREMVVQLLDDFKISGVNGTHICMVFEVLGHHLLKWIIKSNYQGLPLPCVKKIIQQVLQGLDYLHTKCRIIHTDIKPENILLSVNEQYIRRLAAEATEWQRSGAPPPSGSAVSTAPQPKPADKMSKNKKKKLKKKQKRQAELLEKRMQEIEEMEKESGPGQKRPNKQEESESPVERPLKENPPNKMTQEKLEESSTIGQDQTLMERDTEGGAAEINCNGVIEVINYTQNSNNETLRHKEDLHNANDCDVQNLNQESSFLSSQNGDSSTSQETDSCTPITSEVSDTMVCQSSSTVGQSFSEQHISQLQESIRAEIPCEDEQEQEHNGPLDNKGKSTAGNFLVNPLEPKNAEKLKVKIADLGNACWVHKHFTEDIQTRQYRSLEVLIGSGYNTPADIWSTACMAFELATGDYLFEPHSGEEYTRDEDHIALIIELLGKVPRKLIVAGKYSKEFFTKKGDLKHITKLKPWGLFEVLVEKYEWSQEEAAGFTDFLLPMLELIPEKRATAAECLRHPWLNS
UniProt P49674, sequence (whole entry, looked up): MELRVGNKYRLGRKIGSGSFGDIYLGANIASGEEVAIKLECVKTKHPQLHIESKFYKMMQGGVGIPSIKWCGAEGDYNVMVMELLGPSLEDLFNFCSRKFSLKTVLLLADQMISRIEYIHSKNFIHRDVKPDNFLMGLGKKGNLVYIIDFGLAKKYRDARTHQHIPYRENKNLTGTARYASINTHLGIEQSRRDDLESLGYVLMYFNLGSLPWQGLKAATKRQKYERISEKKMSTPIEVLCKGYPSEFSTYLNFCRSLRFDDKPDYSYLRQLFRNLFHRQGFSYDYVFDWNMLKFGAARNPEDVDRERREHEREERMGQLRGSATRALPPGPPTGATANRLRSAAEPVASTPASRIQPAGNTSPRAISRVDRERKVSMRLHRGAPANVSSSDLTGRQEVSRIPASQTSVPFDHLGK
UniProt P30291, sequence (whole entry, looked up): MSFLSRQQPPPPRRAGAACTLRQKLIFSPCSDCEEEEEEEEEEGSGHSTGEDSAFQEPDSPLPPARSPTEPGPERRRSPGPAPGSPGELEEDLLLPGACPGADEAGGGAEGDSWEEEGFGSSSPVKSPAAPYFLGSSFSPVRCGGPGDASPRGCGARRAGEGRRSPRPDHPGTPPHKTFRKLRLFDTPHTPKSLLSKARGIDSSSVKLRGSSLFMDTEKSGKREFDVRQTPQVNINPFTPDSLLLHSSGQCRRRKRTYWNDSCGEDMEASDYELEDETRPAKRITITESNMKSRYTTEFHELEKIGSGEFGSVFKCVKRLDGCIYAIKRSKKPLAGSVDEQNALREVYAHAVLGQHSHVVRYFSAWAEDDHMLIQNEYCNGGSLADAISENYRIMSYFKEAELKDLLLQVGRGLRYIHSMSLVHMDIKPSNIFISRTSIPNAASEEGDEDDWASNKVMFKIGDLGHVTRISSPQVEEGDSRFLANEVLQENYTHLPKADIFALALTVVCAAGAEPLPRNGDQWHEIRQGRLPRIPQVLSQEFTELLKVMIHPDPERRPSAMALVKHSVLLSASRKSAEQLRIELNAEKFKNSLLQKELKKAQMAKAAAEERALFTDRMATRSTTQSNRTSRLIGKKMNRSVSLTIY
UniProt Q9BYP7, sequence (whole entry, looked up): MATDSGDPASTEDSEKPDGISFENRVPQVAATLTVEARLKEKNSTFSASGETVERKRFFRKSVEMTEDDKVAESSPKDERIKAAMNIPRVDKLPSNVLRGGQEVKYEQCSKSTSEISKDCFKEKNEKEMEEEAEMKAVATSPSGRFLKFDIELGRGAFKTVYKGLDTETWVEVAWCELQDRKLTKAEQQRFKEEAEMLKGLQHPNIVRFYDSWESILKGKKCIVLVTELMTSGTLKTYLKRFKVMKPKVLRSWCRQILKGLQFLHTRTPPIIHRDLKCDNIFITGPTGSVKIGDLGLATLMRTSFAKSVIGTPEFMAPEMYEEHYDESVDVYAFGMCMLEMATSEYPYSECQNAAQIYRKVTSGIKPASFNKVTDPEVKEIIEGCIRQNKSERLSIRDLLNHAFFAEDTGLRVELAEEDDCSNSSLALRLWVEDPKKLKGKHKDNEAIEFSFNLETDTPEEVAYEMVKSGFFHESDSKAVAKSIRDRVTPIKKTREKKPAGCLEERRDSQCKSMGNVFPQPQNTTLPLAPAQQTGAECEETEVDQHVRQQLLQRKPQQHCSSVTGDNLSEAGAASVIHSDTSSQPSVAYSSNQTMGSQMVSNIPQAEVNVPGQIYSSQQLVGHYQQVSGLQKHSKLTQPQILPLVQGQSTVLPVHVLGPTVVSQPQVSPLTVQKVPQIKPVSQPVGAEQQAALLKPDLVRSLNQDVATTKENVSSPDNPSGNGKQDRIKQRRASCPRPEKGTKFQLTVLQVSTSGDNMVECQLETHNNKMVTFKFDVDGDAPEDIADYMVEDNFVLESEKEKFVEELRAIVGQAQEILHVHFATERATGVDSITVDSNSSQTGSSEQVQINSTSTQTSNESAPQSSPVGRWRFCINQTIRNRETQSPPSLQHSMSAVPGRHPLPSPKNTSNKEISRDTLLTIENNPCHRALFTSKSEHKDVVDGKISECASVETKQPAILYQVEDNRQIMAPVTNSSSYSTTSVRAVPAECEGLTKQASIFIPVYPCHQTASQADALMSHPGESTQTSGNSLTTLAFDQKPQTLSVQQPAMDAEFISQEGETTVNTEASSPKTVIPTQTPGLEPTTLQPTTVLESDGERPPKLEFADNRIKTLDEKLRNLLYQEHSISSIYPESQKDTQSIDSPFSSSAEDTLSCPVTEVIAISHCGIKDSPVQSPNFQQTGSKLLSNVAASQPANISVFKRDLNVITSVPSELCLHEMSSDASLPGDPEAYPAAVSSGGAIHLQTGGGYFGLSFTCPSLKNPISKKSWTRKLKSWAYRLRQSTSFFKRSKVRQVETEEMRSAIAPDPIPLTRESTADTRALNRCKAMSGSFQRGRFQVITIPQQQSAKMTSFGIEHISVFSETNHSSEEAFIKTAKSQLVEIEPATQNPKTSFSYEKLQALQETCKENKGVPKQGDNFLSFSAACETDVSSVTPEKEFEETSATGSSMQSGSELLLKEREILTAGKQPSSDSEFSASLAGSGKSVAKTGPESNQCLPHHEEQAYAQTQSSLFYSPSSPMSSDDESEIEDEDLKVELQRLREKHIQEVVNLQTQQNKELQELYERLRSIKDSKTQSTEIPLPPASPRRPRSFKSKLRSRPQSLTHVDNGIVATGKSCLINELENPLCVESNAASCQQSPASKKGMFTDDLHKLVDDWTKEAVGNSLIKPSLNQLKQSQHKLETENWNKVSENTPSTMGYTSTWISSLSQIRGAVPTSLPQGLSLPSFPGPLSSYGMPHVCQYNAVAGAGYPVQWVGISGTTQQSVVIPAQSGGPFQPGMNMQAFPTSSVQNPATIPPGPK
UniProt Q06418, sequence (whole entry, looked up): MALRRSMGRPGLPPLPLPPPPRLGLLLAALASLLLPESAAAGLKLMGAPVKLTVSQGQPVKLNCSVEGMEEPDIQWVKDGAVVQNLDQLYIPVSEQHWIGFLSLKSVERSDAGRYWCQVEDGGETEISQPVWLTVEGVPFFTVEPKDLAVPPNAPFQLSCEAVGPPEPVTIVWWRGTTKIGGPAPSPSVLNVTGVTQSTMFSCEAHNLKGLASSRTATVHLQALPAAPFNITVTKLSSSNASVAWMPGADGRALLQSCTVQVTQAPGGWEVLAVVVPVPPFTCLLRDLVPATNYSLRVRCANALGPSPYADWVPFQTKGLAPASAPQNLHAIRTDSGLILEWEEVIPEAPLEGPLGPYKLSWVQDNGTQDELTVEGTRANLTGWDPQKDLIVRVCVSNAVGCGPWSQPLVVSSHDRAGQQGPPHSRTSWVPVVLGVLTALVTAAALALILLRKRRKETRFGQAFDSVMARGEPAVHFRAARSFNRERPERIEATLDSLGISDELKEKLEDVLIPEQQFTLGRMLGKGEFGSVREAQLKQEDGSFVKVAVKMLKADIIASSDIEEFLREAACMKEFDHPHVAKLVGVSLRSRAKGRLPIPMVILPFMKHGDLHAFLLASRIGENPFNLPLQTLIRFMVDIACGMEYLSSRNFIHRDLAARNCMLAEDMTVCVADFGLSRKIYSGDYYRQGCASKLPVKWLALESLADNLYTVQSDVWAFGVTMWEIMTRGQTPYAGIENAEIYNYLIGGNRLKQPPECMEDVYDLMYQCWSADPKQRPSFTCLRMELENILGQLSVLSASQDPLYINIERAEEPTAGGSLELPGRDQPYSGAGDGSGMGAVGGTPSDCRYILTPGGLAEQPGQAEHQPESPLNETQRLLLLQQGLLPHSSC

Block 1
Target: Ras GTPase-activating protein-binding protein 1, C-terminal RGG region (G3BP1, Homo sapiens, UniProt Q13283)
UniProt Q13283, sequence (whole entry, looked up): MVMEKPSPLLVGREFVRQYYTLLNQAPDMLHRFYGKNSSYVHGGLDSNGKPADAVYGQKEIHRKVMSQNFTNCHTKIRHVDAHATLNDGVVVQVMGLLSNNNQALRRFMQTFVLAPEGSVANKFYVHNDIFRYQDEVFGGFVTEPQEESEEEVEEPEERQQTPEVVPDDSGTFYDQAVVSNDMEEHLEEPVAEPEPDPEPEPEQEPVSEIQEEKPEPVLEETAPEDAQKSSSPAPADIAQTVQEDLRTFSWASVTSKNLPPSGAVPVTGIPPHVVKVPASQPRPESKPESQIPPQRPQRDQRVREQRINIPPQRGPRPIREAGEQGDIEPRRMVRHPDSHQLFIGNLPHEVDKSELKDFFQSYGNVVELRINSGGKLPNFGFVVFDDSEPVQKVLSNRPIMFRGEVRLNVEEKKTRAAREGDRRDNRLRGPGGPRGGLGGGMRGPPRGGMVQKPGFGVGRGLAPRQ
Technique: RNA Bind-n-Seq
Molecule type: RNA
Sample: in vitro
Tested at: 1 µM
Notes: whole 134-nt RNA, ends assumed
With: 150 mM KCl
Baseline: input library
Reading: higher = stronger binding
Constant ends, left off below: GGGAGUUCUACAGUCCGACGAUC … UGGAAUUCUCGGGUGUCAAGG
`GUCCUGUGCUACACAUCGUAUGUACCGAAUCGGGGUUUUUGGGUUUUUGGGUUUUUGGAAAGUAUUAUGUUACGCCGUUCGGAUCUGCAC` has a log2 enrichment of -0.802.
`GUCCUGUGCUACACAUCGUAUGUACCGAAUCAAAUUUUUAAAUUUUUUUAAACCCAAAAAAGUAUUAUGUUACGCCGUUCGGAUCUGCAC` has a log2 enrichment of -1.21.
`UGGCCCUGGUGGCAUGCGGGGAGGAAGAGGUGGCCUCAUGGAUCGUGGUGGUCCCGGUGGAGUGUUCAGAGGUGGCCGUGGUGGAGACAG` gave a log2 enrichment of 1.86.
`ACCAUGCAGGUGGGCAUCUUUGGGAAGUGGGGCAAGGGGGCGAUAGGGAGGGGGGUAACACUUUGGGAACAGGUGGUCCCAGGUCGUUUC` has a log2 enrichment of 2.02.
`CAAGUCCUGUGCUACACAUCGUAUGUACCGAAUCGGGAAAGGAAAGGGGAAAGGGAAAGUAUUAUGUUACGCCGUUCGGAUCUGCACUUC` has a log2 enrichment of -0.239.
With `GUCCUGUGCUACACAUCGUAUGUACCGAAUCGGGUUUUUUUGGGAAAGGGAAAAAGGGAAAGUAUUAUGUUACGCCGUUCGGAUCUGCAC` the log2 enrichment was -0.695.
The log2 enrichment of `UCAAGUCCUGUGCUACACAUCGUAUGUACCGAAUCGGGCCGGGGCCGGGCCGGGAAAGUAUUAUGUUACGCCGUUCGGAUCUGCACUUCC` is reported as -0.119.
The log2 enrichment of `CCUGUGCUACACAUCGUAUGUACCGAAUCGGGUUUUUUUGGGUUUUUUUGGGUUUUUGGGAAAGUAUUAUGUUACGCCGUUCGGAUCUGC` is reported as -1.36.

Block 2
Compound: COc1cc2ncnc(Nc3ccc(OCc4ccccc4)cc3)c2cc1OC
Effect on: enzyme activity
Mode: inhibitor
Tested at: 0.5 µM
Baseline: control
It gave 98.4% for remaining activity (Casein kinase I isoform epsilon (CSNK1E, Homo sapiens, UniProt P49674)).
The remaining activity was 86.9% (Tyrosine-protein kinase receptor TYRO3 (TYRO3, Homo sapiens, UniProt Q06418)).
It gave 96.6% for remaining activity (Casein kinase I isoform delta (CSNK1D, Homo sapiens, UniProt P48730)).
It gave 105% for remaining activity (SRSF protein kinase 1 (SRPK1, Homo sapiens, UniProt Q96SB4)).
Serine/threonine-protein kinase MARK1 (MARK1, Homo sapiens, UniProt Q9P0L2) — remaining activity: 103%.
Calcium/calmodulin-dependent protein kinase type 1 (CAMK1, Homo sapiens, UniProt Q14012) — remaining activity: 98.4%.
It gave 98.7% for remaining activity (Serine/threonine-protein kinase BRSK2 (BRSK2, Homo sapiens, UniProt Q8IWQ3)).
The remaining activity was 105% (Dual specificity tyrosine-phosphorylation-regulated kinase 1A (DYRK1A, Homo sapiens, UniProt Q13627)).
The remaining activity was 36% (Tyrosine-protein kinase Yes (YES1, Homo sapiens, UniProt P07947)).
Ephrin type-A receptor 2 (EPHA2, Homo sapiens, UniProt P29317) — remaining activity: 106%.
The remaining activity was 103% (Serine/threonine-protein kinase PAK 4 (PAK4, Homo sapiens, UniProt O96013)).
The remaining activity was 99.6% (Serine/threonine-protein kinase PAK 5 (PAK5, Homo sapiens, UniProt Q9P286)).
For Dual specificity protein kinase CLK2 (CLK2, Homo sapiens, UniProt P49760): remaining activity read 102%.

Block 3
SMILES: CNC(=O)Nc1ccc2c(c1)CC[C@@]21OC(=O)N(CC(=O)N(Cc2ccc(F)cc2)[C@@H](C)C(F)(F)F)C1=O
Technique: competition with immobilised ligand
Tested at: 1 µM
The remaining binding was 83% (Serine/threonine-protein kinase WNK3 (WNK3, Homo sapiens, UniProt Q9BYP7); cell-free assay).
It gave 95% for remaining binding (SRSF protein kinase 1 (SRPK1, Homo sapiens, UniProt Q96SB4); cell-free assay).
It gave 73% for remaining binding (Epidermal growth factor receptor (EGFR, Homo sapiens, UniProt P00533, T790M); cell-free assay).
The remaining binding was 91% (Proto-oncogene tyrosine-protein kinase Src (SRC, Homo sapiens, UniProt P12931); cell-free assay).
The remaining binding was 90% (Tyrosine-protein kinase receptor UFO (AXL, Homo sapiens, UniProt P30530); binding).
It gave 78% for remaining binding (Mitogen-activated protein kinase kinase kinase 19 (MAP3K19, Homo sapiens, UniProt Q56UN5); cell-free assay).
The remaining binding was 96% (Epidermal growth factor receptor (EGFR, Homo sapiens, UniProt P00533, L858R); cell-free assay).
It gave 100% for remaining binding (Dual specificity mitogen-activated protein kinase kinase 4 (MAP2K4, Homo sapiens, UniProt P45985); cell-free assay).
It gave 80% for remaining binding (Wee1-like protein kinase (WEE1, Homo sapiens, UniProt P30291); cell-free assay).

Single results of other studies
The logD of CCOC(=O)[C@@H]1CSCC(=O)N[C@H](CC)C(=O)N(C)[C@@H](C)C(=O)N[C@H](CC(C)C)C(=O)N2CCC[C@@H]2C(=O)N(CC(C)C)CC(=O)N[C@H](CC(C)C)C(=O)N(C)[C@H](C)C(=O)N[C@@H](CC(C)C)C(=O)N1C is reported as 1.46 (hydrocarbon/water).
